Published values pooled from the literature.
Each numbered part is a random draw from the data of one study; scales do not carry over between parts. Changes are numbered by the printed parent chain.

Block 1
Target: Sal-like protein 4, full length isoform A (SALL4, Homo sapiens, UniProt Q9UJQ4, residues 1-1053)
UniProt Q9UJQ4, sequence (whole entry, looked up): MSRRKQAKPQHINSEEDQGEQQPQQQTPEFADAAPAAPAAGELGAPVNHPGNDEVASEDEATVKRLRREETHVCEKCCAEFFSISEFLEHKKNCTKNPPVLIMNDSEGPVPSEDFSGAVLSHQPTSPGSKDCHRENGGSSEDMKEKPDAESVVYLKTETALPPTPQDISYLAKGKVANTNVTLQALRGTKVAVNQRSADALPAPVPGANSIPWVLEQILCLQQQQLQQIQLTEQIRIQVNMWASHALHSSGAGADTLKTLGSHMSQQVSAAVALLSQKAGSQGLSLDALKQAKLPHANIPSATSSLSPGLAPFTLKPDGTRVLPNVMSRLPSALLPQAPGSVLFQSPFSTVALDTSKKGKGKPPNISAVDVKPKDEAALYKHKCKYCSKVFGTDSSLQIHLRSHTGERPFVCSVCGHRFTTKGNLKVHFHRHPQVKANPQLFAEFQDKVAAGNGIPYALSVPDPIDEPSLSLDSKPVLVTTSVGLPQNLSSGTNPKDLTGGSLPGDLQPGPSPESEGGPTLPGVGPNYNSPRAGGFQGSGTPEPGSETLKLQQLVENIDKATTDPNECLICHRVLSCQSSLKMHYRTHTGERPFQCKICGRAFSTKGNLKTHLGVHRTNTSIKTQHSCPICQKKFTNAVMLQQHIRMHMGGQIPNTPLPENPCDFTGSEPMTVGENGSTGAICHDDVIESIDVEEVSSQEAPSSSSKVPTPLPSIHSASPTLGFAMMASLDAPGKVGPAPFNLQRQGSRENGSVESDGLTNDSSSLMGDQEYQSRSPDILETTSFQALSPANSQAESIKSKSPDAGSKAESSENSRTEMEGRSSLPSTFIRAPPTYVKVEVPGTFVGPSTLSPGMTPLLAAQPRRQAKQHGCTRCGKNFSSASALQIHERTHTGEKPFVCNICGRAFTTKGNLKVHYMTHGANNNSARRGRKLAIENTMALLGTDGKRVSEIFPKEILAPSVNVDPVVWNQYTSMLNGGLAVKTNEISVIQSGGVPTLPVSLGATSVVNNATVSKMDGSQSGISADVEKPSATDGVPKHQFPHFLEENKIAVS
Method: universal PBM
Form: double-stranded DNA, one strand shown
Sample: in vitro
Tested at: 600 nM
Setting: 8-mer, flanks averaged, mean of replicates
Direction: higher = stronger binding
Endpoint: E-score
Sequence = CCTTGCTC; value = -0.233
Sequence = CCCAAAGC; value = -0.134
Sequence = AAACCCCT; value = -0.281
Sequence = TAACGGGA; value = 0.138
Sequence = CGGAGAAA; value = -0.106
Sequence = ACTTATAA; value = 0.307
Sequence = AACCGAGA; value = 0.113
Sequence = AGCGCCAT; value = -0.21
Sequence = AGTCCCGG; value = -0.326
Sequence = TGAGAGCA; value = -0.0352
Sequence = GGGGAGGA; value = -0.25
Sequence = ACCCCCCA; value = -0.264
Sequence = TGGAGACA; value = -0.0126
Sequence = ACCAGGCC; value = -0.297
Sequence = GTTTCCTA; value = 0.127
Sequence = CAAATTTA; value = 0.291
Sequence = ACTGGTGG; value = -0.241
Sequence = ACGGATGG; value = -0.0294
Sequence = GTTGGTTA; value = 0.0439
Sequence = AAGCCACA; value = 0.0198
Sequence = AAGTTACT; value = 0.14

Block 2
Target: CCND2, cyclin fold, Cln2 fusion (human)
Method: yeast growth competition, sequencing
Sample: yeast
Setting: weak parent motif
Relative to: not given
Direction: higher = stronger binding
Endpoint: normalised enrichment score
Starting sequence: RBL1 docking peptide (human); GSAKRRLFGEDPP
Variant = P12R; value = 0.316
Variant = P13N; value = 0.268
Variant = F8V; value = 0.293
Variant = A3F; value = 0.19
Variant = L7K; value = 0.41
Variant = P13R; value = 0.445
Variant = R6L; value = 0.414
Variant = P13K; value = -0.353
Variant = A3W; value = 0.298
Variant = R6I; value = 0.337
Variant = A3K; value = 0.14
Variant = R6N; value = 0.537
Variant = F8Q; value = 0.000602

Block 3
Target: ABI1, truncated, D143A, DHFR fusion (Arabidopsis thaliana)
Method: DHFR PCA, deep sequencing
Sample: yeast
Setting: methotrexate growth selection, single substitutions
Added: (+)-ABA 710 µM
Relative to: wild-type fitted maximum
Direction: higher = stronger binding
Endpoint: relative binding score
Starting sequence: PYL1, truncated, DHFR fusion (Arabidopsis thaliana); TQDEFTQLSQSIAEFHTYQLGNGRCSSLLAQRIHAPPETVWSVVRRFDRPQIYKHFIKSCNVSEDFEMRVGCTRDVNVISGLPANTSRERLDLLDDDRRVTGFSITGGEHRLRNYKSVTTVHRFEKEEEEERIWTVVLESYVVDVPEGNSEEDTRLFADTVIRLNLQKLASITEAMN; partner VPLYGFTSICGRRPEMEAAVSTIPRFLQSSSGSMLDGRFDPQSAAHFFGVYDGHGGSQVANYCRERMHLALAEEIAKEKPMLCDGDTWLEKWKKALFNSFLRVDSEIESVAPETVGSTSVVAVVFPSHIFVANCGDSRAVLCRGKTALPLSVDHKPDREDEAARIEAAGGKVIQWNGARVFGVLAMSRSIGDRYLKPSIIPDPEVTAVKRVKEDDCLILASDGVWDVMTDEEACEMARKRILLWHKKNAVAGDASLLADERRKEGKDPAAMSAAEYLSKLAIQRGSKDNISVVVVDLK
Variant = Q31E; value = 85.3%
Variant = E129K; value = 107%
Variant = D3K; value = 103%
Variant = L20T; value = 101%
Variant = R90F; value = 66.6%
Variant = R163Q; value = 96.8%
Variant = S87M; value = 14.5%
Variant = F5R; value = 106%
Variant = S117L; value = -3.87%
Variant = R90G; value = 38.6%
Variant = R123D; value = 103%

Block 4
Target: Fragile X messenger ribonucleoprotein 1, C-terminal low-complexity region (Fmr1, Mus musculus, UniProt P35922)
Method: RNA Bind-n-Seq
Form: RNA
Sample: in vitro
Tested at: 200 nM
Setting: whole 134-nt RNA, ends assumed
Added: 150 mM KCl
Relative to: input library
Direction: higher = stronger binding
Endpoint: log2 enrichment
Constant ends, left off below: GGGAGUUCUACAGUCCGACGAUC … UGGAAUUCUCGGGUGUCAAGG
Sequence = UGCUGCGGAAGGGCUCUGGCACUCUGUGUGAGGCCUUGCUGAUGGUGCAGGCCUUCCACGCCAACAUCAUCUUCCCCAACAAGCAAGAGC; value = 0.0801
Sequence = CCUCAAGUCCUGUGCUACACAUCGUAUGUACCGAAUCGGCGGCGGGGCGGGGAAAGUAUUAUGUUACGCCGUUCGGAUCUGCACUUCCAG; value = 0.454
Sequence = AGUCCUGUGCUACACAUCGUAUGUACCGAAUCGGGGCCCCGGGGCCCCGGCCCCGGGGAAAGUAUUAUGUUACGCCGUUCGGAUCUGCAC; value = -1.48
Sequence = UGGCCCUGGUGGCAUGCGGGGAGGAAGAGGUGGCCUCAUGGAUCGUGGUGGUCCCGUUGGAAUGUUCAGAGGUGGCCGUGGUGGAGACAG; value = -0.0326
Sequence = CUGUGCUACACAUCGUAUGUACCGAAUCGGGGUUUUUGGGGUUUUUUUGGGGUUUUUGGGGAAAGUAUUAUGUUACGCCGUUCGGAUCUG; value = 0.0412
Sequence = UGGCUAGUCAGCAGCGGAUGUCCCCUCCAGGUUAAGAAAGCCGAACCAGAGCCGAUGCGAGAGGAGGAGAAAAUGAUUCCUCCUACGAAA; value = -0.0532

Block 5
Target: RING finger protein unkempt homolog, zinc fingers 1-6, SBP tag (UNK, Homo sapiens, UniProt Q9C0B0, residues 30-357)
UniProt Q9C0B0, sequence (30-357, looked up): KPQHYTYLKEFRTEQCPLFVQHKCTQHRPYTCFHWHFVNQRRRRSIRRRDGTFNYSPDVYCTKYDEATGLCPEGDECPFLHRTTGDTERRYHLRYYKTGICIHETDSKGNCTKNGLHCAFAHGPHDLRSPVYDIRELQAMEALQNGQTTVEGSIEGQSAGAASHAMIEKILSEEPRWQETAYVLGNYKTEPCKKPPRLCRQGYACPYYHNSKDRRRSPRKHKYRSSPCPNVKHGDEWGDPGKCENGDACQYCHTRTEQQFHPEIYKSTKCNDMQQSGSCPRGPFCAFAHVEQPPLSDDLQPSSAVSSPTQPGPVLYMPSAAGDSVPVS
Method: RNA Bind-n-Seq
Form: RNA
Sample: in vitro
Tested at: 100 nM
Setting: RNA with constant flanks, vertebrate orthologous sites, ends assumed
Relative to: input RNA pool
Direction: higher = stronger binding
Endpoint: bound/input enrichment
Constant ends, left off below: GGGAGUUCUACAGUCCGACGAUC … CAACAGAGGAUUGAGCAUCA
Sequence = UCAGCAGUCUAGAUCUUUUUUUUUUCCUUUUUCCCUUAAUCCUUUUUUAUUUUUAAACAAUAGUUCUUUUGUAAUGUGGUGUUUGACACUGAAUUGAAACUGACACCCUAUCUCUGGGAG; value = 8.97 ratio
Sequence = AGAGAAUUUUCACCAAGAGUCUGAAGGUAGAAGUACAGGACCAUGGUUAUCUUCCUCAUUUAGAAAUAGGUGCACUCCUUUGUUCUCCAGAAGGAGACGAGAAGGAAGAGAUGAAUCCUC; value = 0.303 ratio
Sequence = GUGUUUUGUACAGGGCAUUCUCUGUACUAGUUUGUCGUGGUUAUAAAACAAUUAGCAGAAUAGCCUACAUUUGUAUUUAUUUUCUAUUCCAUACUUCUGCCCACGUUUUCUCUCAAAAUC; value = 1.06 ratio
Sequence = GUCCUCGGAUUGGAUGAAGACCGUCCCGAGUUACAACCAGACCAAUAGCUCCAUGGACUUCAGAAAUUACAUGAUGAGAGAUGAGAAUCUGGAACCACUGCCCAAAAACUGGGAGAUGGC; value = 0.274 ratio
Sequence = UGGGUUUGGGGUAGAAGGGUGGGAAGGGGCAGGAUAAGUGGAAUCUUUAGGGUUUAUGGGAGGUAGGGGCAGUUAGUUCUAAGUGGGCUUUCAUGUUACCUGAUGUGUGAGGGUAAGGAC; value = 1.03 ratio
Sequence = CAACUCCAUGGUGGAGGGCUCCGAGCUCAAGAAGGUCCGCUCCAACUCCAGAAUCUACCACCGCUAUUUCCUCCUGGACGCCGACAUGCAGAGCCUGAGGUGGGAGCCGUCCAAGAAGGA; value = 0.425 ratio
Sequence = CGGCAGAUUCGCUCAUAGGGAGAGCUGCACACAUUGCUGUUCUUGAUUCAGAAAUAUUUUUAGAAAAAUUCUUCCUUGUUGCUGCCCUCAAAUAUUUUCAGUAGAGAAAAGCAUUGUAAG; value = 0.501 ratio
Sequence = UCCCAGUACCUUGAUAAAAAGUGUGGACUGGUUGCUCGUGUUUUCUCUAUUCUUUUUAAUUAGUUUCAUUAUGUAUGCUACCAUUCGAACUGAGAAUAUUCGGUGGCUAAUUCCAGGACA; value = 1.28 ratio
